Published values from different studies.
Parts stem from different laboratories: compare values within a part only. Substitutions count along the parent as printed.

Series 1 — technique: RNA Bind-n-Seq; form: RNA; medium: in vitro; concentration: 200 nM; setting: whole 134-nt RNA, ends assumed; added: 150 mM KCl; baseline: input library; direction: higher = stronger binding; endpoint: log2 enrichment
Target: Fragile X messenger ribonucleoprotein 1, C-terminal low-complexity region (Fmr1, Mus musculus, UniProt P35922)
Constant ends, left off below: GGGAGUUCUACAGUCCGACGAUC … UGGAAUUCUCGGGUGUCAAGG
Strand = GUCCUGUGCUACACAUCGUAUGUACCGAAUCAAACCCCCAAACCCCCCCAAAUUUAAAAAAGUAUUAUGUUACGCCGUUCGGAUCUGCAC; value = -0.157
Strand = GUCCUGUGCUACACAUCGUAUGUACCGAAUCGGGUUUUGGGGUUUUGGGGUUUUGGGGAAAGUAUUAUGUUACGCCGUUCGGAUCUGCAC; value = 0.397
Strand = CACAGGCAACACGCACCCACACAGACACAGAGGGAAGGGGUUGGGAUGGGGACAGGGUGCACAGCAGGGCGGGGUAGGACCCCAGCCCCU; value = 1.24
Strand = CCUCAAGUCCUGUGCUACACAUCGUAUGUACCGAAUCGGCCGGCCGGCCGGGGAAAGUAUUAUGUUACGCCGUUCGGAUCUGCACUUCCA; value = -0.161
Strand = CACAGACAACACGAACCCACACAGACACAGAGGGAAGGGGUUGGGAUGGGGACAGGGUGCACAGCAGGGCGGGGUAGGACCCCAGCCCCU; value = 1.57
Strand = AACAGACAACACGCACCCACACAGACACAGAGGGAAGGGGUUGGGAUGGGGACAGGGUGCACAGCAGGGCGGGGUAGGACCCCAGCCCCU; value = 1.14
Strand = UAGCUAAACUAAUGUCAACUUAUUUCCUUUUUUCCUUUAGCCACCAUCAAAGAACAGACGAGAGAGAACAGAACUGAAGCCUGAUUUCUU; value = -0.68
Strand = UGGGAGGUGGAUUUUGUUUAUUUUUUUAGCUCGUUUCCAGGGGUGGGAAUUUUUUUUUAAUAUGUGUCAUGAAUAAAGUUGUUUUUGAAA; value = 0.359
Strand = GUCCUGUGCUACACAUCGUAUGUACCGAAUCAAAUUUUUAAACCCCCCCAAACCCAAAAAAGUAUUAUGUUACGCCGUUCGGAUCUGCAC; value = -0.0981

Series 2 — target: CCNB1, cyclin fold, Cln2 fusion (human); technique: yeast growth competition, sequencing; medium: yeast; setting: weak parent motif; baseline: not given; direction: higher = stronger binding; endpoint: normalised enrichment score
Starting sequence: GMNC docking peptide (human); KNAKRNLSSEFAN
Change = KNAKRNLSSEFFN [A12F]; value = 0.055
Change = KNAKRCLSSEFAN [N6C]; value = -0.0607
Change = KNAKRNLSIEFAN [S9I]; value = -0.166
Change = KNAKRNLSSRFAN [E10R]; value = 0.747
Change = KNAKHNLSSEFAN [R5H]; value = 0.445
Change = KNAKRNLSSESAN [F11S]; value = 0.378
Change = KNAKRNDSSEFAN [L7D]; value = 0.674
Change = KNAIRNLSSEFAN [K4I]; value = 0.489
Change = KNAKRNLRSEFAN [S8R]; value = 0.322
Change = KNAKRNLSSEFGN [A12G]; value = -0.0727
Change = KNDKRNLSSEFAN [A3D]; value = 0.109
Change = KNAKRNLSSEFQN [A12Q]; value = 0.14
Change = KNAKRILSSEFAN [N6I]; value = 0.149

Series 3 — target: BATF2, bZIP domain (human); technique: DHFR protein complementation; medium: yeast; baseline: wild-type JUN-FOS pair; direction: higher = stronger binding; endpoint: binding fitness
Setting: single substitutions, most at no-binding floor
Starting sequence: JUN, bZIP domain (human); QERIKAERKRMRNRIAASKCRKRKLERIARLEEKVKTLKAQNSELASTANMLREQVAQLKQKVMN; partner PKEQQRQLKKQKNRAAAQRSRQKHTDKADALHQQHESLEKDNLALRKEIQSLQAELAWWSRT
Change = A57M; value = -0.525 natural log
Change = K34R; value = -0.125 natural log
Change = K36C; value = -0.272 natural log
Change = M51D; value = -0.107 natural log
Change = Q55M; value = -0.436 natural log
Change = V56S; value = -1.48 natural log
Change = V35P; value = -1.49 natural log
Change = E54G; value = -0.456 natural log
Change = V35Y; value = -1.29 natural log
Change = S47K; value = -0.0204 natural log
Change = R30K; value = -0.328 natural log
Change = M51W; value = -0.332 natural log
Change = E32Q; value = -0.538 natural log

Mixed results
Substance = PhoQ, residues 284 288 289 292 302 303 SNSSNI; target = PhoP, residues 12 14 15 18 19 IQSYL (Escherichia coli, UniProt P23836); test = Sort-seq, measured: YFP reporter; system = E. coli; setting = PhoQ-PhoP variant library, added: 10 µM Mg2+; how to read = baseline: high Mg2+ state, higher = stronger signaling; endpoint = fold induction; value = 0.495
